Assay results from different studies.
Compare with care: the assays were run in different laboratories.
Target: Casein kinase I isoform gamma-3 (CSNK1G3, Homo sapiens, UniProt Q9Y6M4)
Chain of UniProt Q9Y6M4 (whole entry, looked up): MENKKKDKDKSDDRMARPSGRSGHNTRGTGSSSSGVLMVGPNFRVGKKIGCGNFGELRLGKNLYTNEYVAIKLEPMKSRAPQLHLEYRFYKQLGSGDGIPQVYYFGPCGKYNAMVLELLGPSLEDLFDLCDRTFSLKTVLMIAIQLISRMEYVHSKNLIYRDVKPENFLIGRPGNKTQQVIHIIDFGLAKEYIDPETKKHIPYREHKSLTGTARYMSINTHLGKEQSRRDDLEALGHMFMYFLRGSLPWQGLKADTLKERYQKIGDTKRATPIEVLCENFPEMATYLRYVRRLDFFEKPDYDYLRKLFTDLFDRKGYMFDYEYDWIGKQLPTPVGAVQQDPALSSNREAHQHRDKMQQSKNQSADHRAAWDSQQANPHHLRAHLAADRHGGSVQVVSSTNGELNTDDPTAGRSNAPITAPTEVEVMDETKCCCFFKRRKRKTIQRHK

| Compound | test | setting | how to read | endpoint | value |
| --- | --- | --- | --- | --- | --- |
| C=CC(=O)N1CCC(COCC(=O)N2CCN(c3nc(-c4cnc(N)nc4C(F)F)nc(N4CCOC[C@@H]4C)n3)CC2)CC1 | KINOMEscan | 1 µM | reference: DMSO control | remaining binding | 100% |
| C[C@@H](c1ccc(-n2cnc3c(N)ncnc32)cc1)N1CCc2nn(C)c(Cc3ccccc3)c2C1=O | KINOMEscan | 0.1 µM | reference: DMSO control | remaining binding | 75% |
| CNc1ncc2c(/C=C/C(=O)N3CCC(OC)CC3)nn(Cc3cccc(C(F)(F)F)c3)c2n1 | kinase activity, inhibitor | 1 µM | reference: untreated control | remaining activity | 108% |
| COc1cc(F)ccc1-c1ncnc(Nc2cccc(C[S@](C)(=N)=O)c2)n1 | kinase activity | 10 µM, together with: 10 µM ATP | – | remaining activity | 98% |
| C1=C/COCc2cc(ccc2OCCN2CCCC2)Nc2nccc(n2)-c2cccc(c2)COC/1 | – | concentration not given | – | percent of control | 100% |
| C=CC(=O)N1CCC(C(=O)NCC(=O)N2CCN(c3nc(-c4cnc(N)nc4C(F)F)nc(N4CCOCC4)n3)CC2)CC1 | KINOMEscan | 1 µM | – | remaining binding | 100% |
| CCN(CC)c1ccc(C2=NNC(=O)CC2C)cc1[N+](=O)[O-] (centres unmarked) | enzyme activity, inhibitor | 10 µM | reference: vehicle | remaining activity | 101% |
| COc1cc(N2CCN(C)CC2)ccc1Nc1nc(N)n(C(=S)NCc2c(Cl)cccc2Cl)n1 | enzyme activity | 10 µM | reference: control | remaining activity | 21% |
| CCCOc1ccc(OC)c(F)c1C(=O)c1ccc(C(=O)N[C@@H]2CNC[C@H]2NC(=O)c2ccc3[nH]ncc3c2)cc1 | enzyme activity | 10 µM | – | remaining activity | 31% |
| O=C(NC1CCC1)c1ccc2nc(-c3cccc(NS(=O)(=O)NCCN4CCCCC4)c3)cn2c1 | enzyme activity | 10 µM | – | remaining activity | 100% |
| Cc1cc(Nc2cc(N3CCN(C)CC3)nc(Sc3ccc(NC(=O)C4CC4)cc3)n2)[nH]n1 | kinase activity, KinaseProfiler | 0.03 µM, species human | reference: control | remaining activity | 104% |

Repeated from above:
| Compound | test | setting | how to read | endpoint | value |
| --- | --- | --- | --- | --- | --- |
| C1=C/COCc2cc(ccc2OCCN2CCCC2)Nc2nccc(n2)-c2cccc(c2)COC/1 | – | concentration not given | – | percent of control | 100% |
